Measurements from different studies.
Parts stem from different laboratories: compare values within a part only.
UniProt O75582, sequence (whole entry, looked up): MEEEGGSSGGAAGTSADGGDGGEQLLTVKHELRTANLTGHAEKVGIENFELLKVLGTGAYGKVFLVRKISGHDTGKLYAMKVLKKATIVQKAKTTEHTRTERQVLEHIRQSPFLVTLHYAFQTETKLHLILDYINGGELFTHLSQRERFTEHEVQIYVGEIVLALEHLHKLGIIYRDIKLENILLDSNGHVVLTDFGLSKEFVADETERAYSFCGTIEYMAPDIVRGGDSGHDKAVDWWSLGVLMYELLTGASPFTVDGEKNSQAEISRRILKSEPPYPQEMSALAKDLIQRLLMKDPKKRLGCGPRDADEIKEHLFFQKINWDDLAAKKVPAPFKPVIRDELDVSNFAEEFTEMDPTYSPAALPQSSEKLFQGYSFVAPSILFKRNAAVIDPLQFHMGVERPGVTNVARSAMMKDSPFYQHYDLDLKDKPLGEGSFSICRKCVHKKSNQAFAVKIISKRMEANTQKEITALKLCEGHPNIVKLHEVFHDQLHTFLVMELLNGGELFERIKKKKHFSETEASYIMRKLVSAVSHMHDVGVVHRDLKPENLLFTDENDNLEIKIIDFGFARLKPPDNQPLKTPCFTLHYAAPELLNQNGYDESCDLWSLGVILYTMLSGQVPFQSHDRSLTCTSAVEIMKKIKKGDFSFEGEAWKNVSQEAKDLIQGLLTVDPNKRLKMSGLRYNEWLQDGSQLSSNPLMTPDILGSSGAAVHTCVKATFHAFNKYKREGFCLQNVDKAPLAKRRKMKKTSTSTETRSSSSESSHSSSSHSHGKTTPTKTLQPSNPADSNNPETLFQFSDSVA
UniProt P21127, sequence (whole entry, looked up): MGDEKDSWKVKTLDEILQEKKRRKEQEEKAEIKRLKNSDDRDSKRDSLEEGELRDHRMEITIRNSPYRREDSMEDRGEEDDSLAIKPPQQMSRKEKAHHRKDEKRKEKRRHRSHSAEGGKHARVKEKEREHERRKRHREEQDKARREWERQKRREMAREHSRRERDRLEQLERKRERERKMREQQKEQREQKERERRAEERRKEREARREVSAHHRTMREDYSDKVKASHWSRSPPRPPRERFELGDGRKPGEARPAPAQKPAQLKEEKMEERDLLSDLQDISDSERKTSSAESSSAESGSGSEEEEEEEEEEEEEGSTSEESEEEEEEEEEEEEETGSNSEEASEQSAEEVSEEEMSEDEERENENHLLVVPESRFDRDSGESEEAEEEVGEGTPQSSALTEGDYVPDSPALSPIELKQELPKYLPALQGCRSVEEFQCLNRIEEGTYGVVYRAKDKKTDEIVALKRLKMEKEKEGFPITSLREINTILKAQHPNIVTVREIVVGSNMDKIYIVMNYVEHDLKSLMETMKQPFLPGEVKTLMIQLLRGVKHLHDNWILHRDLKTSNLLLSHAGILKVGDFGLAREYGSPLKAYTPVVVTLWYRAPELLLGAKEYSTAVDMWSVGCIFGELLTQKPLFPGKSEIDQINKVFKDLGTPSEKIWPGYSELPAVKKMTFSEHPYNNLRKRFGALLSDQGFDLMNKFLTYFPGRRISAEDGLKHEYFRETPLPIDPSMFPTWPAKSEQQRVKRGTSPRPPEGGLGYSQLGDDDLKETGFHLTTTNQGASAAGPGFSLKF
UniProt Q32MK0, sequence (whole entry, looked up): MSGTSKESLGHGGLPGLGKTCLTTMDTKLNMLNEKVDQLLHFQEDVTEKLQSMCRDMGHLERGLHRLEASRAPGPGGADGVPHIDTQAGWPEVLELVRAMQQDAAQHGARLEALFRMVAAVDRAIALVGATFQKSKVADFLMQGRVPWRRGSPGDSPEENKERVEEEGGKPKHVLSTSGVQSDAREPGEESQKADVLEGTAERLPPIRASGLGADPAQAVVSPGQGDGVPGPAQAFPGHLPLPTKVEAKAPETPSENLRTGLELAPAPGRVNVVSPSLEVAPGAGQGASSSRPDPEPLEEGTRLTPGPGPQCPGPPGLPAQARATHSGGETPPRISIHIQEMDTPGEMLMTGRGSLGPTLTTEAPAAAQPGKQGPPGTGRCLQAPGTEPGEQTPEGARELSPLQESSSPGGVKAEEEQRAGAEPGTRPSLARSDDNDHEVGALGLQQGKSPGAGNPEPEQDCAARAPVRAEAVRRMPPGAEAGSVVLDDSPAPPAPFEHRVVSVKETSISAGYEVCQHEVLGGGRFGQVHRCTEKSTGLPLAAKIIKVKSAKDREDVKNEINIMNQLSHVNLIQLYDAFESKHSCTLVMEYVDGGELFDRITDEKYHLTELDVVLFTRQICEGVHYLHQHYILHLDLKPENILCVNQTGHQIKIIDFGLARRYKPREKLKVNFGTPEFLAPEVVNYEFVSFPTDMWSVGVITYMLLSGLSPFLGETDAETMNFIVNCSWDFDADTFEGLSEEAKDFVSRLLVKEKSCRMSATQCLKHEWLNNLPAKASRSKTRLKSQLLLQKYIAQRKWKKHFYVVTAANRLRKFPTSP
UniProt O15146, sequence (whole entry, looked up): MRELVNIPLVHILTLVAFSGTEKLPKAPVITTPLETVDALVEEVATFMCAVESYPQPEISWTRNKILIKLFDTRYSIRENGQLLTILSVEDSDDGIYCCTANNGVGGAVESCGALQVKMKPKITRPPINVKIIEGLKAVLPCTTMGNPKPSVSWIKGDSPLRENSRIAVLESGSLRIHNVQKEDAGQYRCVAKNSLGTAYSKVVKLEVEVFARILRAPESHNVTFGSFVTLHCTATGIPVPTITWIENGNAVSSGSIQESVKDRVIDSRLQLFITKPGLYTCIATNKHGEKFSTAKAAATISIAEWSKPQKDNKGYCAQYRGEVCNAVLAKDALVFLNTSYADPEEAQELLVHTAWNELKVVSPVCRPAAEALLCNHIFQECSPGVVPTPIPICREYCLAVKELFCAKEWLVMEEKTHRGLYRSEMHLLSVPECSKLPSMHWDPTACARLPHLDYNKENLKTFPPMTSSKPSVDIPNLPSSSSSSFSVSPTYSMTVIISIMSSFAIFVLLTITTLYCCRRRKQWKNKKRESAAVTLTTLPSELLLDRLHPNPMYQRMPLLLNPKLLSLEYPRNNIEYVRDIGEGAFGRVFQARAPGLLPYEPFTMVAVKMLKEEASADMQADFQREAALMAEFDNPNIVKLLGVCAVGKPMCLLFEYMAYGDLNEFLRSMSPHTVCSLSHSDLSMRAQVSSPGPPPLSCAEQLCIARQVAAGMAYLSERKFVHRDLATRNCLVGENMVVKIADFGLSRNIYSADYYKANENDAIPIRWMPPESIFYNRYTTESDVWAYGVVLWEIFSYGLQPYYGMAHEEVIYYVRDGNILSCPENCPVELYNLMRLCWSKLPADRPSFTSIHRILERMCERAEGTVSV

Set 1 — effect on: enzyme activity; mode: inhibitor; tested at: 10 µM; quantity: inhibition
Target: Calcium/calmodulin-dependent protein kinase type II subunit alpha (CAMK2A, Homo sapiens, UniProt Q9UQM7)
UniProt Q9UQM7, sequence (whole entry, looked up): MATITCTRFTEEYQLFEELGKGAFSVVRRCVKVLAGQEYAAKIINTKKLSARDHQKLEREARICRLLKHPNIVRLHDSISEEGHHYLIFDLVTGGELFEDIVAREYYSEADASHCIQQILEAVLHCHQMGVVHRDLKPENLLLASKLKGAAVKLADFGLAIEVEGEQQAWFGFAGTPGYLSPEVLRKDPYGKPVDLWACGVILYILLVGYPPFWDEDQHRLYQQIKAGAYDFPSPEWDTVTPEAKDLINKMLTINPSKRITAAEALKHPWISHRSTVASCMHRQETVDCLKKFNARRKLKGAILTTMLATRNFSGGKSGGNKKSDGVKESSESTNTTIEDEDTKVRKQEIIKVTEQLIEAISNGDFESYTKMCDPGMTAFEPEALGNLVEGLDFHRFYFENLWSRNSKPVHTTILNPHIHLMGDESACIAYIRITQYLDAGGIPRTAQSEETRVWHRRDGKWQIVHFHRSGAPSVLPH
CC1(C)CC[C@]2(C(=O)O)CC[C@]3(C)C(=CC[C@@H]4[C@@]5(C)CC[C@@H](O)C(C)(C)[C@@H]5CC[C@]43C)[C@@H]2C1: -13%
Cc1cc(S(=O)(=O)O)c2c(C)ccc(C(C)C)cc1-2: -2%
COc1ccc(C(C)=O)cc1O: 8%
CC1(C)CC[C@]2(C(=O)O)CC[C@]3(C)C(=CC[C@@H]4[C@@]5(C)C[C@@H](O)[C@H](O)[C@@](C)(CO)[C@@H]5CC[C@]43C)[C@@H]2C1: -1%
N[C@@H](CC(=O)N1CCc2c(nc(C(F)(F)F)nc2C(F)(F)F)C1)CN1CC(F)(F)CCC1=O: -8%

Set 2 — cell line: HaCaT; tested at: 100 µM; time: 60 h; quantity: viability
Nc1ccccc1S(N)(=O)=O: 143%
Cc1nc2n(c(=O)c1CCN1CCC(c3noc4cc(F)ccc34)CC1)CCCC2O (stereo not shown): 131%
OC[C@H]1O[C@@H](c2ccc(Cl)c(Cc3ccc(O[C@H]4CCOC4)cc3)c2)[C@H](O)[C@@H](O)[C@@H]1O: 125%
O=c1ccn([C@@H]2O[C@H](CO)[C@@H](O)[C@H]2O)c(=O)[nH]1: 150%
COC(=O)[C@@H]1CC2=CC(=O)CC[C@]2(C)[C@@]23O[C@@H]2C[C@@]2(C)[C@@H](CC[C@@]24CCC(=O)O4)[C@H]13: 127%

Set 3 — tested at: 1 µM; quantity: remaining binding
SMILES: Cc1nc(N2CC[C@@H](O)C2)ncc1-c1cc(C(F)(F)F)cc2[nH]ncc12
Interleukin-1 receptor-associated kinase 4 (IRAK4, Homo sapiens, UniProt Q9NWZ3); binding, competition with immobilised ligand: 94%
Tyrosine-protein kinase ABL1, phosphorylated (ABL1, Homo sapiens, UniProt P00519, F317I); binding: 87%
Myosin light chain kinase (MYLK3, Homo sapiens, UniProt Q32MK0); binding, competition with immobilised ligand: 98%
Ribosomal protein S6 kinase alpha-5, C-terminal kinase domain (RPS6KA5, Homo sapiens, UniProt O75582); binding, competition with immobilised ligand: 81%
Phosphatidylinositol 4,5-bisphosphate 3-kinase catalytic subunit alpha isoform (PIK3CA, Homo sapiens, UniProt P42336, H1047L); cell-free assay, competition with immobilised ligand: 93%
Cyclin-dependent kinase-like 3 (CDKL3, Homo sapiens, UniProt Q8IVW4); binding, competition with immobilised ligand: 100%
Tyrosine-protein kinase Fes/Fps (FES, Homo sapiens, UniProt P07332); cell-free assay, competition with immobilised ligand: 100%
Dual specificity mitogen-activated protein kinase kinase 1 (MAP2K1, Homo sapiens, UniProt Q02750); binding, competition with immobilised ligand: 83%
Cyclin-dependent kinase 11B (CDK11B, Homo sapiens, UniProt P21127); cell-free assay, competition with immobilised ligand: 94%
Tyrosine-protein kinase Mer (MERTK, Homo sapiens, UniProt Q12866); cell-free assay, competition with immobilised ligand: 100%
Serine/threonine-protein kinase OSR1 (OXSR1, Homo sapiens, UniProt O95747); binding, competition with immobilised ligand: 67%
Muscle, skeletal receptor tyrosine-protein kinase (MUSK, Homo sapiens, UniProt O15146); binding, competition with immobilised ligand: 85%
Serine/threonine-protein kinase MRCK alpha (CDC42BPA, Homo sapiens, UniProt Q5VT25); cell-free assay, competition with immobilised ligand: 100%
NUAK family SNF1-like kinase 2 (NUAK2, Homo sapiens, UniProt Q9H093); binding, competition with immobilised ligand: 67%
Casein kinase I isoform gamma-2 (CSNK1G2, Homo sapiens, UniProt P78368); cell-free assay, competition with immobilised ligand: 100%

Set 4 — Compound: C=CCc1ccc(O)c(-c2cc(CC=C)ccc2O)c1; effect on: chloride current; technique: whole-cell voltage clamp; quantity: IC50
ANO1 del476-501/R561A: Anoctamin-1 (ANO1, Homo sapiens, UniProt Q5XXA6, del476-501/R561A)
UniProt Q5XXA6, sequence (whole entry, unmodified, looked up): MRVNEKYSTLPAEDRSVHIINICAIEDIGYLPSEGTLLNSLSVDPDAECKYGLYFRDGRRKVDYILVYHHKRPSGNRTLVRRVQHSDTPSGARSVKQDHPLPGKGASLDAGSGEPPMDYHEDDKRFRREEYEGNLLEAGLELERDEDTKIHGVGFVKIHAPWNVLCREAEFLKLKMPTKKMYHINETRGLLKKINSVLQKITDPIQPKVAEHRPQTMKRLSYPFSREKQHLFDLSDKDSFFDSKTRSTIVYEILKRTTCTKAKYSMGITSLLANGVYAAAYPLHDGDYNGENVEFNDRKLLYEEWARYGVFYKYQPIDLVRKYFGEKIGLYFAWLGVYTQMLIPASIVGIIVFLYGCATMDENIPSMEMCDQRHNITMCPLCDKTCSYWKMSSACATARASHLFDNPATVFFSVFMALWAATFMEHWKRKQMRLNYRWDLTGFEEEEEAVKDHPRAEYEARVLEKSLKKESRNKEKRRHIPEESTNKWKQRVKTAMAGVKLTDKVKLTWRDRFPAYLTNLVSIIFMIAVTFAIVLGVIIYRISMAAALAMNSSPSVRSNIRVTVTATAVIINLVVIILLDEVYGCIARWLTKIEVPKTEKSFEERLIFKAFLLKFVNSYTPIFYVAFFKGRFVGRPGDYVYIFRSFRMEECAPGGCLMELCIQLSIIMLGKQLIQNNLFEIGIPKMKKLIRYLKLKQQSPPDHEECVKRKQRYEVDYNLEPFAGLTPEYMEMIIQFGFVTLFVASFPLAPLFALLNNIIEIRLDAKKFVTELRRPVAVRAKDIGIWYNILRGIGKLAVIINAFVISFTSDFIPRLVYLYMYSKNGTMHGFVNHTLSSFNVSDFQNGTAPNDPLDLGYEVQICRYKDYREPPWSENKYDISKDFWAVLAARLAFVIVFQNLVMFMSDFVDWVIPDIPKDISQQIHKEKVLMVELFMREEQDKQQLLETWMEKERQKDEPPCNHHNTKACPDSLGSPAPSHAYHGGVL
ANO1 del476-501/F627A: Anoctamin-1 (ANO1, Homo sapiens, UniProt Q5XXA6, del476-501/F627A)
ANO1 del476-501: Anoctamin-1 (ANO1, Homo sapiens, UniProt Q5XXA6, del476-501)
Anoctamin-1 (ANO1, Homo sapiens, UniProt Q5XXA6, del476-501/R541I); inhibitor; R515I mutant at 80 mV: 100 µM
ANO1 del476-501/R561A; membrane voltage -20 mV: 23.7 µM
Anoctamin-1 (ANO1, Homo sapiens, UniProt Q5XXA6, del476-501/F803A); membrane voltage -20 mV: 26.1 µM
Anoctamin-1 (ANO1, Homo sapiens, UniProt Q5XXA6, del476-501/K629R); inhibitor; 80 mV holding voltage: 237 µM
ANO1 del476-501/F627A; membrane voltage -20 mV: 19.2 µM
ANO1 del476-501; membrane voltage -80 mV, together with: 300 nM Ca2+: 25.2 µM
Anoctamin-1 (ANO1, Homo sapiens, UniProt Q5XXA6, del476-501/K629D); inhibitor; 40 mV holding voltage: 220 µM
ANO1 del476-501; membrane voltage 20 mV, together with: 300 nM Ca2+: 18.1 µM
Anoctamin-1 (ANO1, Homo sapiens, UniProt Q5XXA6, del476-501/F807A); membrane voltage -60 mV: 22.5 µM
Anoctamin-1 (ANO1, Homo sapiens, UniProt Q5XXA6, D383A/del476-501); membrane voltage -20 mV: 23.8 µM
ANO1 del476-501/F627A; membrane voltage 20 mV: 18.4 µM
ANO1 del476-501/R561A; membrane voltage -60 mV: 32.9 µM

For quick reference, copied from above (set 4):
ANO1 del476-501/R561A; membrane voltage -20 mV: 23.7 µM
Anoctamin-1 (ANO1, Homo sapiens, UniProt Q5XXA6, del476-501/R541I); inhibitor; R515I mutant at 80 mV: 100 µM
Anoctamin-1 (ANO1, Homo sapiens, UniProt Q5XXA6, del476-501/F803A); membrane voltage -20 mV: 26.1 µM
